Measurements pooled from the literature.
± marks the error that the study gave.
prp N63Q: Ribosomal processing cysteine protease Prp (prp, Staphylococcus aureus, UniProt Q2FXS9, N63Q)
Sequence of UniProt Q96PF2 (whole entry, looked up): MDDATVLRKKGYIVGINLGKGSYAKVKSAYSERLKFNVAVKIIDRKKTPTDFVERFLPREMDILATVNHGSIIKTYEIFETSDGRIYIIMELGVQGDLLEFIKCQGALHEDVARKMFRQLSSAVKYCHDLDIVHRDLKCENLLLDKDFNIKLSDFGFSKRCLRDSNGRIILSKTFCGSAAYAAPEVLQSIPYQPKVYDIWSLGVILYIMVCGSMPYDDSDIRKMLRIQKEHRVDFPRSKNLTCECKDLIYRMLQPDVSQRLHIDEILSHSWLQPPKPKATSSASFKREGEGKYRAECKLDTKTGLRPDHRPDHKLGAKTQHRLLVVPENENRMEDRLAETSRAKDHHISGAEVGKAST
Sequence of UniProt P08913 (whole entry, looked up): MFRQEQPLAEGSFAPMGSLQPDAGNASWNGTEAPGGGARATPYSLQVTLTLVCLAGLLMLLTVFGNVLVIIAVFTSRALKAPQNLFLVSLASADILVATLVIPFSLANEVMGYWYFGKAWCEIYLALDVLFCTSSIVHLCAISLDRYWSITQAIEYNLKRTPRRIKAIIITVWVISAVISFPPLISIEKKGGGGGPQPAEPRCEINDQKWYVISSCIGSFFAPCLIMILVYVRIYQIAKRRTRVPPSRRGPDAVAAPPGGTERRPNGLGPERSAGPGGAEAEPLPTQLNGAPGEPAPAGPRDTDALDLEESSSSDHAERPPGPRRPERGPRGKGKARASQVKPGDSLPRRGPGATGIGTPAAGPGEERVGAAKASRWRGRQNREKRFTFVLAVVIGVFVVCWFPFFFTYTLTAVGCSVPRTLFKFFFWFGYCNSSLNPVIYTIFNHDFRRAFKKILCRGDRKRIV
Sequence of UniProt Q8TDC3 (whole entry, looked up): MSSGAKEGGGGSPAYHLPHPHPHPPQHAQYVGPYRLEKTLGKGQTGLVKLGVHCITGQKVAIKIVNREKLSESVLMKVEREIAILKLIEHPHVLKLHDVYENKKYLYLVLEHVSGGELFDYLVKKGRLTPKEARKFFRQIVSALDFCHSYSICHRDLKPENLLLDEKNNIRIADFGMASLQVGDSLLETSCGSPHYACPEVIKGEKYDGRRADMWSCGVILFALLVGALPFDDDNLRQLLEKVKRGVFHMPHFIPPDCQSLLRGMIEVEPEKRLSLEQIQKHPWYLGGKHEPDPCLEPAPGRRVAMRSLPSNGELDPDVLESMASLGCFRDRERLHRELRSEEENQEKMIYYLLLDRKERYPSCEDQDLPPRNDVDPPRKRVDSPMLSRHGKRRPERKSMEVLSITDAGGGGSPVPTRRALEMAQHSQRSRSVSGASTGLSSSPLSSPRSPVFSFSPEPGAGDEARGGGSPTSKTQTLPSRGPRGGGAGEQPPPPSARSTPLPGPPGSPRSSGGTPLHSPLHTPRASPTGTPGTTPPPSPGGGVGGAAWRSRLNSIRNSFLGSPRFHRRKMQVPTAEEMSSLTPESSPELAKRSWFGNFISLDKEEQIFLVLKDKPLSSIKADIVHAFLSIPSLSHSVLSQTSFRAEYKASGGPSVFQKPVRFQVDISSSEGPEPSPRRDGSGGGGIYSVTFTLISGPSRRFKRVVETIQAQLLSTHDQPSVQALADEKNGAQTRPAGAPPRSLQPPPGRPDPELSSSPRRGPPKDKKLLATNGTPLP
Sequence of UniProt P97612 (whole entry, looked up): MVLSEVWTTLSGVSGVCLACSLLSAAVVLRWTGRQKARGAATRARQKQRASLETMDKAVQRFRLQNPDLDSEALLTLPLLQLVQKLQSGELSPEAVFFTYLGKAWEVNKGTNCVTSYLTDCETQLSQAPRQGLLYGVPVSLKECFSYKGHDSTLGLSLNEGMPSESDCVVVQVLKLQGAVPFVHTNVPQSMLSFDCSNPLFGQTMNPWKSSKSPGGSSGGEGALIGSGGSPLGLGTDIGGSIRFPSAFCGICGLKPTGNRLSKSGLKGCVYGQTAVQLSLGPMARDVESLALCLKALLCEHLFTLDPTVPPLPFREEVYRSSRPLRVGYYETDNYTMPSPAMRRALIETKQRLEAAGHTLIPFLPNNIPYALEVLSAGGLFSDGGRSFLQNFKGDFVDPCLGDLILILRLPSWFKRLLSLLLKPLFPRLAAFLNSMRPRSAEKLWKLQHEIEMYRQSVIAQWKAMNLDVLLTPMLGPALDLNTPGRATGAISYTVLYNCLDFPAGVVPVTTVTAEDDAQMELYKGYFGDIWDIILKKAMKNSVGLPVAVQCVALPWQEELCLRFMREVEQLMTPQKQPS
Sequence of UniProt Q9UBF8 (whole entry, looked up): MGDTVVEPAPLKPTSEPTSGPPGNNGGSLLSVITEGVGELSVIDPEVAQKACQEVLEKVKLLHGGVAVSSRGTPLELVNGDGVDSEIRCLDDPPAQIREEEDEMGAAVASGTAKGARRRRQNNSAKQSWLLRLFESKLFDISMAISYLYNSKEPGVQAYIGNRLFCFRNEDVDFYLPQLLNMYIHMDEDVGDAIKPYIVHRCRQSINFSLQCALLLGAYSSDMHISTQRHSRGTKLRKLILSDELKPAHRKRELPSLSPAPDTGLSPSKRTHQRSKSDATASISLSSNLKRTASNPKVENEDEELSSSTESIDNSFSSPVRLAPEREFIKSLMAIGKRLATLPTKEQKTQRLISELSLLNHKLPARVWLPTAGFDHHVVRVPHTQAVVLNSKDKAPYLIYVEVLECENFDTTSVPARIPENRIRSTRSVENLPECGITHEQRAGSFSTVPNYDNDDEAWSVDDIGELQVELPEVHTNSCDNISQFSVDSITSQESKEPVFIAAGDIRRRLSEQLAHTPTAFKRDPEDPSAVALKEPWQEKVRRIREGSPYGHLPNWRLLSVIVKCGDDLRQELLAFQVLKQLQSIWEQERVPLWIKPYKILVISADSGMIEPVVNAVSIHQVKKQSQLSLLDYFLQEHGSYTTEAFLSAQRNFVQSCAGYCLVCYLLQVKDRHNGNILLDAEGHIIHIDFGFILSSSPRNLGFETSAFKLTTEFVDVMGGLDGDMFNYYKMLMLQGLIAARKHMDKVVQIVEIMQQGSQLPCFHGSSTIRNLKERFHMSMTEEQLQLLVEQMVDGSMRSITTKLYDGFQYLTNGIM

SMILES | target | test | system | setting | inhibition [%]
CC(=O)NC[C@H]1[C@H](O)[C@H](O)[C@@H]2[C@H](O)C[C@@H](CO)N21 | human placental β-N-acetylglucosaminidase | – | – | 0.00322 µM, run 1, added: p-nitrophenyl GlcNAc | 30.4
CN1CCN(c2cc(-c3ccncc3)c(-c3ccc4ccccc4c3)nn2)CC1 | ADRA2A (Homo sapiens, UniProt P08913) | antagonist, FLIPR | – | 10 µM | 14.1
COc1cc(Nc2ncc(F)c(Nc3ccc4c(n3)NC(=O)C(C)(C)O4)n2)cc(OC)c1OC | BRSK1 (Homo sapiens, UniProt Q8TDC3) | KINOMEscan | – | 10 µM | 0
N=C(N)c1ccc2cc(OC(=O)c3ccc(N=C(N)N)cc3)ccc2c1 | prp N63Q | enzyme activity, inhibitor | – | 10 µM, prp 21.4 nM, added: FITC peptide substrate 0.5 µM | 31.9 ± 16.8
O=C(Nc1cccnn1)N1CCC(=Cc2cccc(Oc3ccc(C(F)(F)F)cn3)c2)CC1 | muscarinic receptor, rat | binding | – | 10 µM, added: [3H]oxotremorine M | 3
CCOC(=O)c1ccc(OC(=O)CCCCCNC(=N)N)cc1 | prp N63Q | enzyme activity, inhibitor | – | 10 µM, prp 21.4 nM, added: FITC peptide substrate 0.5 µM | 35.6 ± 21.3
CN(C(=O)n1cnc(-c2ccc[n+]([O-])c2)c1)C1CCCCC1 | Faah (Rattus norvegicus, UniProt P97612) | probe labelling, inhibitor, competitive ABPP | rat brain soluble fraction | 100 µM, added: azido-FP probe | 99.9
COc1ccc(N2C(=O)N(c3c(C)cccc3Cl)Cc3cnc(Nc4ccc(C5CCN(C)CC5)cc4OC)nc32)nc1 | PI4KB (Homo sapiens, UniProt Q9UBF8) | kinase activity, inhibitor | – | 0.5 µM, kinase PI4K-BETA | -6
COC[C@H](NC(=O)c1cnc(C)s1)C(=O)N[C@@H](COC)C(=O)N[C@@H](Cc1ccccc1)C(=O)[C@@]1(C)CO1 | prp N63Q | enzyme activity, inhibitor | – | 10 µM, prp 21.4 nM, added: FITC peptide substrate 0.5 µM | 44.8 ± 4.9
O=C(Nc1cnccc1Cl)N1CCN(Cc2ccc3c(c2)OC(F)(F)O3)CC1 | TSSK2 (Homo sapiens, UniProt Q96PF2) | kinase activity, inhibitor | – | 10 µM, human, added: CHKtide | 14

For quick reference, copied from above:
SMILES | target | test | system | setting | inhibition [%]
CN1CCN(c2cc(-c3ccncc3)c(-c3ccc4ccccc4c3)nn2)CC1 | ADRA2A (Homo sapiens, UniProt P08913) | antagonist, FLIPR | – | 10 µM | 14.1
